Measurements from different studies.
Parts stem from different laboratories: compare values within a part only.

Block 1 — method: protein-binding microarray; molecule type: double-stranded DNA, one strand shown; matrix: in vitro; tested at: 940 nM top; setting: 60-bp whole probe; with: salmon DNA 0.4 mg/ml; relative to: random background probes; reading: higher = stronger binding; quantity: fitted relative affinity; shared flanks, not repeated: GCCTAGCAC … GTCTTGATTCGCTTGACGCTGCTG
Target: Interferon regulatory factor 5, full length, phosphomimetic (IRF5, Homo sapiens, UniProt Q13568-2, residues 1-514, S451D/S453D/S456D/S462D)
Sequence = GACGGTATCGGGATTCGGGACGTGCTA; result = 3.47 z-score
Sequence = GACAGTTTCGGTTCCGGGACGTGCTAG; result = 14.9 z-score
Sequence = GACCGTTTCGGGTATCGGGACGTGCTA; result = 4.53 z-score
Sequence = TTAGATTTCGGACTGGGTTAGTGCTAG; result = 0.559 z-score
Sequence = TCATTCTTTTTTTTCTTACTGTGCTAG; result = 2.01 z-score
Sequence = ATAGGTTTCGGACTGGGTTAGTGCTAG; result = 6.58 z-score
Sequence = GACGGACTGGGACTGGGGATGTGCTAG; result = -0.299 z-score
Sequence = TCAGATTTCTTCCCTGTGACTGTGCTA; result = 1.02 z-score
Sequence = TTAGATATCAGTCTCAATTAGTGCTAG; result = 0.775 z-score
Sequence = AATTTTTACTTTCTGAATGCGTGCTAG; result = 1.94 z-score
Sequence = TTCGGTCTCGGTCTCGGTTAGTGCTAG; result = 6.09 z-score
Sequence = GACGGTTTCCCTTCCCTGACGTGCTAG; result = 2.09 z-score
Sequence = TTTAAAGAACCCACTATCTTGTGCTAG; result = 0.476 z-score
Sequence = TTAGAACTGGGGACTAGATTAGTGCTA; result = 0.25 z-score
Sequence = TAAGAACTGGGGTATCGATTAGTGCTA; result = 2.83 z-score
Sequence = TGGGGCTGTATCATCTGAAGGTGCTAG; result = 0.15 z-score
Sequence = GACGATCACAGTATCGAGACGTGCTAG; result = 1.44 z-score
Sequence = GACGGACTGGGATTTCGGGACGTGCTA; result = 0.0882 z-score

Block 2 — method: protein binding microarray; molecule type: double-stranded DNA, one strand shown; matrix: in vitro; tested at: not given; relative to: not given; reading: higher = stronger binding; quantity: E-score
Target: Histone acetyltransferase KAT6A, winged helix 2, GST fusion (KAT6A, Homo sapiens, UniProt Q92794, residues 85-181)
Setting: 8-mer, flanks averaged, mean of 2 arrays, mostly near background
Residues (chain): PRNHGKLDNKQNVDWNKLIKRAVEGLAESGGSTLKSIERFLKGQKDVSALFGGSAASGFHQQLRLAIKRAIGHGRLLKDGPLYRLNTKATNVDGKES
Sequence = CGTAAATA; result = 0.0545
Sequence = CTCGGAAA; result = 0.0222
Sequence = AAGAACAC; result = 0.134
Sequence = ACTCTTCT; result = -0.0899
Sequence = TGCTACAA; result = 0.141
Sequence = CGAAATCG; result = 0.0862
Sequence = CAATGGAA; result = 0.075
Sequence = AGACTGAG; result = 0.0453
Sequence = TGACGGCA; result = 0.143
Sequence = AGTAGCAG; result = -0.0389
Sequence = CCACGGAA; result = 0.116
Sequence = CCAATACA; result = 0.0495
Sequence = AGGGCCTC; result = -0.134
Sequence = AGACATGC; result = -0.11
Sequence = AAGTATTC; result = -0.0687
Sequence = CTGGCAAG; result = 0.0511
Sequence = CAACCGGC; result = 0.163
Sequence = CGACCTCG; result = 0.194
Sequence = GAAGTGTC; result = 0.0134
Sequence = CGACCTTA; result = -0.0514
Sequence = GCCTATGA; result = -0.0624
Sequence = GAACATTA; result = -0.116
Sequence = GCCTCCCA; result = 0.0425
Sequence = GTGACAAA; result = -0.0134

Block 3 — method: universal PBM; molecule type: double-stranded DNA, one strand shown; matrix: in vitro; tested at: 600 nM; reading: higher = stronger binding; quantity: E-score
Target: Sal-like protein 4, full length isoform A (SALL4, Homo sapiens, UniProt Q9UJQ4, residues 1-1053)
Sequence of UniProt Q9UJQ4 (whole entry, looked up): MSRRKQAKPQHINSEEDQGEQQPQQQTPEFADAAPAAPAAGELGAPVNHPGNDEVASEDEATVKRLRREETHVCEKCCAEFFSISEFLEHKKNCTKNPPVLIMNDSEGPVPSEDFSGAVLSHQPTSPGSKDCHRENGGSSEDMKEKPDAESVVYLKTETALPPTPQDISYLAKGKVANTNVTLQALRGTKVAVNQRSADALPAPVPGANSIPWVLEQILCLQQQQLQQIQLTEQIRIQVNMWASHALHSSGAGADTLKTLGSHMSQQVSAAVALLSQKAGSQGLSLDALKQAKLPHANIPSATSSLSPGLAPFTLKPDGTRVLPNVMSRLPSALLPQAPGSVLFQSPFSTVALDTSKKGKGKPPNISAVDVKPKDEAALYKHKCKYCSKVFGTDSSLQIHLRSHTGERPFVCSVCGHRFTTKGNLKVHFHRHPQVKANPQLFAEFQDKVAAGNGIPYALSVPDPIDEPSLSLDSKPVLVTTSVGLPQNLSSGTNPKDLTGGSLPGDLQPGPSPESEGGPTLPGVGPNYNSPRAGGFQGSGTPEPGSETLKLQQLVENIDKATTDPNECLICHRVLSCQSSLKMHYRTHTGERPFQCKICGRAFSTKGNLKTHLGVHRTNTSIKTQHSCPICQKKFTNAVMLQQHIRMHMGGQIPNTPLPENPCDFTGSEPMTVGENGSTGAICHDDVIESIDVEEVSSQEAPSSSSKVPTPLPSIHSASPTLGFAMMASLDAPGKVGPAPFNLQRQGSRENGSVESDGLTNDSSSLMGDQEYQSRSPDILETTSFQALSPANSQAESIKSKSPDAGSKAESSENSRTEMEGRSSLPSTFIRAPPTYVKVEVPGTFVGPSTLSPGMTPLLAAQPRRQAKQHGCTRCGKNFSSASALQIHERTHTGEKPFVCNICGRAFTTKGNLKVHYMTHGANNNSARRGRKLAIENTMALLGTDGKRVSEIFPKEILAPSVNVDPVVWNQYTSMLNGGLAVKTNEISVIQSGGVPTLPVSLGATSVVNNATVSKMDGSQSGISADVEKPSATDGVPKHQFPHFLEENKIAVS
Setting: 8-mer, flanks averaged, mean of replicates
Sequence = ACGTCACT; result = -0.093
Sequence = ATCTAATC; result = 0.297
Sequence = ACAACAAT; result = 0.231
Sequence = ACAGTGCC; result = -0.216
Sequence = TTCTAAAA; result = 0.229
Sequence = AATTTTCT; result = 0.228
Sequence = CGACGAGA; result = -0.0633
Sequence = CTTTCCCA; result = -0.0812
Sequence = CATTACGG; result = -0.103
Sequence = ACCAGAAA; result = 0.0987
Sequence = AAACACAC; result = 0.0202
Sequence = ACCGAACA; result = 0.0803
Sequence = GGCTTAAC; result = -0.0586
Sequence = ATAGCTCC; result = 0.0303
Sequence = ACTTGAAT; result = 0.228
Sequence = AGGGCTGA; result = -0.175
Sequence = AAACGGTG; result = -0.000905
Sequence = AGGTTGGG; result = -0.137
Sequence = CCGCATAA; result = 0.221
Sequence = AGCAGCCA; result = -0.0765
Sequence = ACACTATA; result = 0.305
Sequence = AGAACCAA; result = -0.0495
Sequence = ATACTGTC; result = 0.232
Sequence = CGTCGGGC; result = -0.345
Sequence = TCTTGCAA; result = 0.0543

Block 4 — method: RNA Bind-n-Seq; molecule type: RNA; matrix: in vitro; tested at: 365 nM; relative to: no-protein control; reading: higher = stronger binding; quantity: RBNS enrichment (R)
Target: RNA binding protein fox-1 homolog 2, RRM domain, GST-SBP tag (RBFOX2, Homo sapiens, UniProt O43251-10, residues 100-194)
Setting: natural RNA segment, single round, ends assumed
Shared flanks, not repeated: GGGAGUUCUACAGUCCGACGAUC … UGGAAUUCUCGGGUGCCAA
Target sequence (chain): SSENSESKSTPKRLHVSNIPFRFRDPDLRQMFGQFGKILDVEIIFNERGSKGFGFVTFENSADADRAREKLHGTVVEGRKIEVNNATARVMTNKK
Sequence = GCCUGGGGGAUGCACACUUGUAGCCUCAGAGCUAAGAGGACUCGGUGGAUGGAGCAAGACUGUGAACACGUGUGACCCGGACCCACCUACAGCCCGGUGGACCUUCAGCC; result = 0.683
Sequence = AUGAAAGUGCAAGUCUUUAUUAAUUUGGAUUGCCUGAACAGUGUAUCCCAUGAUGAUGAAGGAAAAUGGAGAGAUUUUUCUUUUUAACUCUGCUGGUCAGAGAUGAAGCC; result = 0.778
Sequence = UAUGGGGAAGCCCUUUGGCUUCAGAUUGCCUAUGUUUGAAUAAUAAUAAUAAUAGAUGGCCUAUUGUAAUGGUUAUGUUGCUUUUUUUCUUACCCUCCACCAGAGUCUUG; result = 0.879
Sequence = UGGUUUCCCUUGCGUAAUUGAUAAGCCCAGUUAUUCAGUAAUGUUUACAAAUUAAUUGACUUUGAUAGUUAAAAGAUUAUGAGGUAACCCAUCUGCAAUUUGCCUGUGGG; result = 0.464
Sequence = UGAAUGACCUGAUGUCAGAUUUAGAUUCUUCCUGGGGAUUACACAGCUAUGAAUGUAUUUGCUUCUAAAACCUCCCAAAGUGAAUCUAAUCUUAAAACUACAAGUUGUAA; result = 8.59
Sequence = UCGUCACGGUUAAAGAGAAAUGGGCUCGUCCCGAGGGUAGUGCCUGAUCAAUGAGGGCGGGGCCUGGCGUCUGAUCUGGGGCCGCCCUUACGGGGCAGGGCUCAGUCCUG; result = 0.438
Sequence = UAACUUUUUUAUAUUUGGGUUAUGAUGUCAAACGAUCCUAAGCGAAGAUGAUUUCAGUUCAUCAAAUCAUCAUUAAUGACUUUAUGUAUUAUUUGCACAGGGAGAAUUGA; result = 0.377
Sequence = UCUGUCCCCGCCAGCAACUAUGUGUAAGGUGGGCCACUCUGUCCACAUUGCCUUUGUUAUCUUUUUUUCGGAUUGAGCUCAUAACAGCCUGUGGCCCCUCACAUUCUCCA; result = 0.256
Sequence = CCCCCACUCUGCUGUACUGAUAGGAUUUAGUUGUGUUUUAGGACAUUGCAAAUCUUCUAGAAGUUCUCCCCCAAAUCAGGUCAAUGUGUGCCCUCCUGAGCUCCCACCCA; result = 0.475
Sequence = CUGUGUACAAGUUCACUUGUUGUCUUGAACACUGUCUCAAAUACCUGCUUUUUGUUUUGGAUAGUACCUUGUCUGUAUAAGAAGCUGGCCUUUCCAUAGAGAGGCCCUGG; result = 0.18
Sequence = GGUAGCUGCUUGUGCAGGUCCUGUGCCCAUGGCUUGCUGUGGAGGAGUGUGGCUGAUGGCCUGGGAGGUGGGUUUUCCAUAAUCAUUUCCAUUUGCUAGUUCUCAUGUGA; result = 0.47
Sequence = AUCUGGAUUUACUUGGUUUGCCGUUUUAAUUCCAGCCGGAUUGGUGUUCUUUAAACAAAAAGUAGGCAGGGAGCACUUCCAGGGCUUUGCAGGCUGUUUUUGUUUUUUUU; result = 0.365

Block 5 — method: RNA Bind-n-Seq; molecule type: RNA; matrix: in vitro; tested at: 100 nM; relative to: input RNA pool; reading: higher = stronger binding; quantity: bound/input enrichment
Target: RING finger protein unkempt homolog, zinc fingers 1-6, SBP tag (UNK, Homo sapiens, UniProt Q9C0B0, residues 30-357)
Sequence of UniProt Q9C0B0 (30-357, looked up): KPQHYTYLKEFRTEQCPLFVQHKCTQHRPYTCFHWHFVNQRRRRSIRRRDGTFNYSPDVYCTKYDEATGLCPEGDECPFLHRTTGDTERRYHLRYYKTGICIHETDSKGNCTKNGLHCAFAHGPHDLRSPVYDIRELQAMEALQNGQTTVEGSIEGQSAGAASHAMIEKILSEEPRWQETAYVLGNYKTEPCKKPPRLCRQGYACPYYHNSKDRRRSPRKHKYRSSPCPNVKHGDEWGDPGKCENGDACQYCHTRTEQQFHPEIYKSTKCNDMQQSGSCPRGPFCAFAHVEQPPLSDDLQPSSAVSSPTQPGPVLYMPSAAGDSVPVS
Setting: RNA with constant flanks, vertebrate orthologous sites, ends assumed
Shared flanks, not repeated: GGGAGUUCUACAGUCCGACGAUC … CAACAGAGGAUUGAGCAUCA
Sequence = GGAAAGUUACAGACCAGACUCUGAAAGCAGGAGUACAGGAUCCUGGUUAUCGUCAUCUUUGAGGAACAGAUGUACACCACUCUUUUCCAGAAGAAGAAGAGAAGGGAGAGAUGAAUCUGC; result = 0.406 ratio
Sequence = UGUGCUAAUAUUCUUCUAGGGAAGAGAUGAAUUGGGGAAAACUGUCUCCGUUUUAUAGAUUAGUUUGUUUCUAAAUUAUGACCAAAAAAUAUUUUGCUAUUUCUUUCUUUAUAUAUGGAC; result = 0.895 ratio
Sequence = GUGCAAGGAGAUUAUCCCAACUAGUGAAUUUAUUAACAGUAAGUUGACAGCAAAAGCAAAUAGGCAGCUUCAAGACCCUUUAGUCAUCAUGACAGGAAACAUCCCAACAUGGCUCACUGA; result = 1.22 ratio
Sequence = CUCCUCUUAAUCCCAUUUCAUCUGUUUCAUAGUGCUGAAAUUCCAUCUUCAGCCUUAUUUUUAGUGAACUUAUUCUAAUUCUAGAGAAACUUCCAGCGUGGAUACUGUGAGCUAUAUGGA; result = 1.72 ratio
Sequence = CUGGGCUGGGACAGGUUUUUUUUUUUUUUUUUAAGUCUUGAAACUUAAACUCUGUGCUUGUAGGAGACUGUAACCUUUUGUCUUUUUUUUUUUUUUUUUAAACAAACAACCUCCACCUCC; result = 2.17 ratio
Sequence = UCCCAGCACUCUGAUGAAAAGUGUGGACUGGUUGCUUGUAUUUUCCUUAUUCUUUUUAAUUAGUUUUAUUAUGUAUGCUACCAUUCGAACUGAGAGUAUUCGGUGGCUGAUUCCAGGACA; result = 4.26 ratio
Sequence = AUAGUGGGUUCCUGUCUACUUCUUUCAAGUGUGUGUGGAGGUGGGCGGGGGGAGCCCGCAGAGAUUUCUUAUACAUCUGAUUUGACUGUUCUGGUUUUGCUUUCUAUUAUUUUUAUAUAU; result = 0.805 ratio
Sequence = AUCGCUCAGUGACAGUAUGCCAUCUGUAGCGGAUUCGCAUUCUAGUCAUUUUUCUGAAUUUAGCUGUUCUGACUUAGAAAGCAUGAAAACUUCUUGUAGUCAUGGUUCCAGUGAGUAUCA; result = 0.328 ratio
Sequence = CAGCUGAUUCACUCAUUGGGAGAGCUGCACACAUAGCUGUUCUUGAUUCGGAAAUAUUUUUAGAGAAAUUCUUUCUGGUUGCUGCCCUUAAAUAUUUCCAAUAGGAUAAAAACGUUAUUA; result = 1.18 ratio
Sequence = GUUUGUUUUUUAAUUUUAUUUUUAUUUUUUCCUUUUGGGGGUAAAGUUUGCUCUACCAAAUAGUGAUUGUAACCAAUUGAUCUGUUUGGGAUGUUGCUAUAGUGACAUGCAGUUCUCUAU; result = 2.42 ratio
Sequence = AGGAAAUGCUGGCUGCAAACCCUCAGGAUCGCCCAGAUGCUUUUGAACUAGAACUCAGAUUAGUACAAAUUGCAUUUAAAGAUAGCAGCUGGGAAACGUGACACAUACAUUGUUUGCAAA; result = 0.605 ratio

Repeated from above (block 3):
Sequence = CATTACGG; result = -0.103
Sequence = AGAACCAA; result = -0.0495
Sequence = ACCAGAAA; result = 0.0987
Sequence = ACTTGAAT; result = 0.228
Sequence = CGTCGGGC; result = -0.345
Sequence = TTCTAAAA; result = 0.229
Sequence = ACACTATA; result = 0.305
Sequence = CGACGAGA; result = -0.0633
Sequence = AAACACAC; result = 0.0202
Sequence = TCTTGCAA; result = 0.0543
Sequence = ATCTAATC; result = 0.297
Sequence = AGGTTGGG; result = -0.137
Sequence = ACCGAACA; result = 0.0803
Sequence = ACGTCACT; result = -0.093
